Results pooled from the literature.
Parts stem from different laboratories: compare values within a part only. “And” joins repeats or separate records; there may be more than shown.
Chain of UniProt P54762 (whole entry, looked up): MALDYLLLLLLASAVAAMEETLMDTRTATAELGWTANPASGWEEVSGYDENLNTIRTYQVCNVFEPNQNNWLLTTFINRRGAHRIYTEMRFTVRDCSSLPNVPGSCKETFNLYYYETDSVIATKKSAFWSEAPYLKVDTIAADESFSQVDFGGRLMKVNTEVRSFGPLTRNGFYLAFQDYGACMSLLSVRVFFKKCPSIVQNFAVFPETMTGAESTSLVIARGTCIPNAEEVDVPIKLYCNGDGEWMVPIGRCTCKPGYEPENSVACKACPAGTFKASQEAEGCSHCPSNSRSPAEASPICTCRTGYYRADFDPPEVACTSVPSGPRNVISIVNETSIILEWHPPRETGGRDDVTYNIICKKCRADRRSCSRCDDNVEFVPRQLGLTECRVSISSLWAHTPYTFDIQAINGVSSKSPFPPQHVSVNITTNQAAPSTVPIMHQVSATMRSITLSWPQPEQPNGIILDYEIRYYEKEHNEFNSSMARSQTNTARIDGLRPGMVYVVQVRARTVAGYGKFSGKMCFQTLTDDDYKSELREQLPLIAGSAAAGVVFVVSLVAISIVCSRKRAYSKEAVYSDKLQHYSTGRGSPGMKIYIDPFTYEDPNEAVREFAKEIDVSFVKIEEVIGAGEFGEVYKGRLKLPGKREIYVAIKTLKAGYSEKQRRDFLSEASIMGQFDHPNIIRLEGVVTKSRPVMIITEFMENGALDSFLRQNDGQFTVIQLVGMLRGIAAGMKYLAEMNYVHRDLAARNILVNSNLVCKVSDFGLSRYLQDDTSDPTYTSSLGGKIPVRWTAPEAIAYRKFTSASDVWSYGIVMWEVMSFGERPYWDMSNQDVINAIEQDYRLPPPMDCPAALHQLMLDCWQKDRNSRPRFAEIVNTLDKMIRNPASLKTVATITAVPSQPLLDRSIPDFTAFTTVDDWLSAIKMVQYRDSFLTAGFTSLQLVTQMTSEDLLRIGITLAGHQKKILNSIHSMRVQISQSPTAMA
Chain of UniProt Q9UEE5 (whole entry, looked up): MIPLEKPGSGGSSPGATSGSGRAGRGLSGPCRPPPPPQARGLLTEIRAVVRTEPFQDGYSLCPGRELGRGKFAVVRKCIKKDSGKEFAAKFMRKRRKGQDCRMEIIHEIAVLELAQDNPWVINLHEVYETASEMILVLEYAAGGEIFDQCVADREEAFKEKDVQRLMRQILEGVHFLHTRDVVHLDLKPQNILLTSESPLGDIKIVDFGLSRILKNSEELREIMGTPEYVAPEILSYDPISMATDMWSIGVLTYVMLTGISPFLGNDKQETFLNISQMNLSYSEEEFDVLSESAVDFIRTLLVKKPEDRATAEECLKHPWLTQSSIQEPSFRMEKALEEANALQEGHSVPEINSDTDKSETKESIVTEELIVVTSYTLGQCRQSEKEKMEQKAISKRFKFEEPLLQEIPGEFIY
Chain of UniProt P06493 (whole entry, looked up): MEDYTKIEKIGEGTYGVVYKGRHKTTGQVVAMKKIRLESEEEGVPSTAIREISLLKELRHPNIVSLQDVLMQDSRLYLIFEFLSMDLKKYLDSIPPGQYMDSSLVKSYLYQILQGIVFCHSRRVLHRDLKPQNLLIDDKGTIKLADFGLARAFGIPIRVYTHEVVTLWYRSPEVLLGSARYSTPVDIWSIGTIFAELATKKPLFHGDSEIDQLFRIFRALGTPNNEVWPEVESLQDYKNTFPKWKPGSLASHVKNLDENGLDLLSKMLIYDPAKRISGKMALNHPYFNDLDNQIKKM
Chain of UniProt Q96PF2 (whole entry, looked up): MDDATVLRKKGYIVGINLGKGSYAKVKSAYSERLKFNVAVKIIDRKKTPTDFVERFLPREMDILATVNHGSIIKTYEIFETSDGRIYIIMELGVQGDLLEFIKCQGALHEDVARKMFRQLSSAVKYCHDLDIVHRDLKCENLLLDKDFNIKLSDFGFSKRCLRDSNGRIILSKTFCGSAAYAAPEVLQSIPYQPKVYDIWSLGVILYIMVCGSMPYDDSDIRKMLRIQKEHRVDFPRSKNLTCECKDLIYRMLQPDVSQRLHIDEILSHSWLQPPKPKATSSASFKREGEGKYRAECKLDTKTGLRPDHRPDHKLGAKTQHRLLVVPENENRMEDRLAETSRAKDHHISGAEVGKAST
Chain of UniProt Q9BYP7 (whole entry, looked up): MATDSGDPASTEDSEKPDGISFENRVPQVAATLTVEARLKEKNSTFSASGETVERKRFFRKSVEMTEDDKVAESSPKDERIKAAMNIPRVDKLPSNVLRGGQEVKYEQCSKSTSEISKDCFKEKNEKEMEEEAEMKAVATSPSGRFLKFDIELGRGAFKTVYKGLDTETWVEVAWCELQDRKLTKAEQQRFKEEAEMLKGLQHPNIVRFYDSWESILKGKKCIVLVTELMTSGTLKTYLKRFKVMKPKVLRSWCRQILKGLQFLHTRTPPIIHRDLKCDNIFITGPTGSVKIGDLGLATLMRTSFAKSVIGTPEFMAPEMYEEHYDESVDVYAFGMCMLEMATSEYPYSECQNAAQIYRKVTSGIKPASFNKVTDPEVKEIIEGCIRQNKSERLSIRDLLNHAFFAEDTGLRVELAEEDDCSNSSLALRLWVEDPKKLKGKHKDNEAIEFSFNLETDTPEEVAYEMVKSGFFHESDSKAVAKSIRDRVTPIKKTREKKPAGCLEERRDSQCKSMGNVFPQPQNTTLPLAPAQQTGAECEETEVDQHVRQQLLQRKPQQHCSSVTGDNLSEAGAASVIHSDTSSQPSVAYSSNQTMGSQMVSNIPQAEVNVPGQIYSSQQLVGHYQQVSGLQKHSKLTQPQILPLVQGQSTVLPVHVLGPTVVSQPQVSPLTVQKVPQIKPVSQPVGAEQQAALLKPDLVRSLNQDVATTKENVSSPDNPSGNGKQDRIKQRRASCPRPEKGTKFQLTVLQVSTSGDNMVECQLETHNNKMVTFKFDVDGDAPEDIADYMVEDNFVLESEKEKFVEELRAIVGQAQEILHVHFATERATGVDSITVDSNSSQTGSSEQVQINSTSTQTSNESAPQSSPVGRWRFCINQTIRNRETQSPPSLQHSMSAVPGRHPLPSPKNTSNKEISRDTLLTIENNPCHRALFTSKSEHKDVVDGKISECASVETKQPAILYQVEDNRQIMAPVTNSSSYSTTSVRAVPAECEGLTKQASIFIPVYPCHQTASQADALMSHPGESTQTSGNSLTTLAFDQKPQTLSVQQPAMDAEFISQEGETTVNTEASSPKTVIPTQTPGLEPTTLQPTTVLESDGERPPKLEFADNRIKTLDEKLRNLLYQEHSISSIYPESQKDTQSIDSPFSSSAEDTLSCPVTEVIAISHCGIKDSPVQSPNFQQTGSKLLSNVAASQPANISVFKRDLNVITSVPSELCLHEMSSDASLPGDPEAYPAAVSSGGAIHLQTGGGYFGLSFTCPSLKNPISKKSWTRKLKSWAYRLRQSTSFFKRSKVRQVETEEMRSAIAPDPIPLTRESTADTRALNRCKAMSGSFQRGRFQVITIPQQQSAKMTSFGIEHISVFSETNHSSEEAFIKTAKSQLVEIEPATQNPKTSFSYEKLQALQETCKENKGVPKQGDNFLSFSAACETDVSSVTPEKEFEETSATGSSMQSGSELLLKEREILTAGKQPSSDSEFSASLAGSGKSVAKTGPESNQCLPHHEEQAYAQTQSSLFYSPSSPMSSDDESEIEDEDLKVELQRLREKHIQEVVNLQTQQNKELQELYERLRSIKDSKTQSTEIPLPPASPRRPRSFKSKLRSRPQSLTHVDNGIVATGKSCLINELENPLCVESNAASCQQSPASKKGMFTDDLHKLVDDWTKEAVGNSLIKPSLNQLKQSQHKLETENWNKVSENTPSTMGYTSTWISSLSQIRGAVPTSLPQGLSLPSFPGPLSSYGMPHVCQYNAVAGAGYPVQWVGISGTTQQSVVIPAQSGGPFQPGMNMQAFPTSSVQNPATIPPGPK
Chain of UniProt Q9H2X6 (whole entry, looked up): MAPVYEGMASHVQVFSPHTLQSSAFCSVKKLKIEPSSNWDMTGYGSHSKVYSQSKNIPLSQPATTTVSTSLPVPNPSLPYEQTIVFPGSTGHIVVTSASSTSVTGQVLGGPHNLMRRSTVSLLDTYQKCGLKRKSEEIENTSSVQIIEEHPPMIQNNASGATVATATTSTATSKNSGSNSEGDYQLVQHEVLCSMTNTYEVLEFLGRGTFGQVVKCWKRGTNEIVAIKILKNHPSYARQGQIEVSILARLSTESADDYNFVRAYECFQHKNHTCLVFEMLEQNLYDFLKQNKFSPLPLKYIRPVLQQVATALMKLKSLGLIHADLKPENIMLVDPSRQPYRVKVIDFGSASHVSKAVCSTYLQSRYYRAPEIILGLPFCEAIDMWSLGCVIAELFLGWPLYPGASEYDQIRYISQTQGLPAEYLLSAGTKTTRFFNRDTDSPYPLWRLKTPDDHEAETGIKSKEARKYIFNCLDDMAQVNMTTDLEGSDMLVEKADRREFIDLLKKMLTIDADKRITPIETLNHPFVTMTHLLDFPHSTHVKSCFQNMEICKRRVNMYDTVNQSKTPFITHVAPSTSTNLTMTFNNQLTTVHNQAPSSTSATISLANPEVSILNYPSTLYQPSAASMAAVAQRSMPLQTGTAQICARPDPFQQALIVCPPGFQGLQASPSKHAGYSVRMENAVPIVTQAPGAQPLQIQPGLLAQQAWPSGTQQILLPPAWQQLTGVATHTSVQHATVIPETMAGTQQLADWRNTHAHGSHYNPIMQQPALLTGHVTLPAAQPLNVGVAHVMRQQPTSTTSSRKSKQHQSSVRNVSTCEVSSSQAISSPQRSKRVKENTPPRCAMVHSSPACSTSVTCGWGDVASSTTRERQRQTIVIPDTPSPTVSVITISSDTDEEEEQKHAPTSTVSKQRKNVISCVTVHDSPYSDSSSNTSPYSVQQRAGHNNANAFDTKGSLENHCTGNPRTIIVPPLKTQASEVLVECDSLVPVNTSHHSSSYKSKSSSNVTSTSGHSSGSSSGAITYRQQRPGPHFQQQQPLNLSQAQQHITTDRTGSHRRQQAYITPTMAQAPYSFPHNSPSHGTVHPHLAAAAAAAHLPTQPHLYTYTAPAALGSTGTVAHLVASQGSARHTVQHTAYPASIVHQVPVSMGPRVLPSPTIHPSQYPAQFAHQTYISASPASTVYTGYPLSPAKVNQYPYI

Set 1 — cell line: HaCaT; tested at: 100 µM; time: 60 h
SMILES | viability [%]
CCOC(=O)N[C@@H]1CC[C@@H]2[C@@H](C1)C[C@H]1C(=O)O[C@H](C)[C@H]1[C@H]2/C=C/c1ccc(-c2cccc(F)c2)cn1 | 116
C=C1CC[C@@H]2[C@](C)(CO)[C@H](O)CC[C@@]2(C)[C@@H]1C/C=C1/C(=O)OC[C@H]1O | 18.8
CC(=O)SCC(Cc1ccccc1)C(=O)NCC(=O)OCc1ccccc1 (stereo not shown) | 146
Cn1cnc2c1c(=O)[nH]c(=O)n2C | 130
CCOc1cc(CC(=O)N[C@@H](CC(C)C)c2ccccc2N2CCCCC2)ccc1C(=O)O | 121
CC1CCC(C(C)C)C(O)C1 (racemic) | 143
Cc1ccc(/C(=C\CN2CCCC2)c2ccccn2)cc1 | 130

Set 2 — observed: enzyme activity; mode: inhibitor; tested at: 0.5 µM; relative to: control
SMILES: O=S(=O)(NCCNC/C=C/c1ccc(Br)cc1)c1cccc2cnccc12
target | remaining activity [%]
Phosphorylase b kinase gamma catalytic chain, skeletal muscle/heart isoform (PHKG1, Homo sapiens, UniProt Q16816) | 91.6
Serine/threonine-protein kinase WNK3 (WNK3, Homo sapiens, UniProt Q9BYP7) | 93.1
Dual specificity tyrosine-phosphorylation-regulated kinase 3 (DYRK3, Homo sapiens, UniProt O43781) | 83.5
Tyrosine-protein kinase receptor UFO (AXL, Homo sapiens, UniProt P30530) | 112
Serine/threonine-protein kinase 17A (STK17A, Homo sapiens, UniProt Q9UEE5) | 100
Tyrosine-protein kinase Blk (BLK, Homo sapiens, UniProt P51451) | 82.4
Cyclin-dependent kinase 6, with cyclin D3 (CDK6, Homo sapiens, UniProt Q00534) | 96.6
Homeodomain-interacting protein kinase 4 (HIPK4, Homo sapiens, UniProt Q8NE63) | 97.7
Ephrin type-B receptor 4 (EPHB4, Homo sapiens, UniProt P54760) | 108
Testis-specific serine/threonine-protein kinase 2 (TSSK2, Homo sapiens, UniProt Q96PF2) | 104
Homeodomain-interacting protein kinase 2 (HIPK2, Homo sapiens, UniProt Q9H2X6) | 99.2
3-phosphoinositide-dependent protein kinase 1 (PDPK1, Homo sapiens, UniProt O15530) | 94.1
MAP kinase-activated protein kinase 3 (MAPKAPK3, Homo sapiens, UniProt Q16644) | 97.8
Tyrosine-protein kinase Srms (SRMS, Homo sapiens, UniProt Q9H3Y6) | 97.8
Ephrin type-B receptor 1 (EPHB1, Homo sapiens, UniProt P54762) | 106
Serine/threonine-protein kinase 16 (STK16, Homo sapiens, UniProt O75716) | 94.4
Ribosomal protein S6 kinase alpha-5 (RPS6KA5, Homo sapiens, UniProt O75582) | 39.4
Mitogen-activated protein kinase kinase kinase kinase 4 (MAP4K4, Homo sapiens, UniProt O95819) | 43.8
Ephrin type-A receptor 4 (EPHA4, Homo sapiens, UniProt P54764) | 86.8
Cyclin-dependent kinase 4, with cyclin D3 (CDK4, Homo sapiens, UniProt P11802) | 106
Cyclin-dependent kinase 1, with cyclin B (CDK1, Homo sapiens, UniProt P06493) | 93.3
Calcium/calmodulin-dependent protein kinase type II subunit beta (CAMK2B, Homo sapiens, UniProt Q13554) | 93.3
Ribosomal protein S6 kinase alpha-6 (RPS6KA6, Homo sapiens, UniProt Q9UK32) | 71.8

Set 3 — technique: Incucyte 3D growth; tested at: 30 µM; reading: higher = more growth
Compound: CC(C)(C(=O)O)[C@H](NC(=O)Cc1cccc(I)c1)c1ccc2oc(=O)[nH]c2c1
cell line | time | spheroid area
A375 | 138 h | 7.76e+07 a.u. and 8.46e+07 a.u. and 8.22e+07 a.u. and 8.84e+07 a.u. and 1e+08 a.u. and 7.38e+07 a.u.
KP-4 | 114 h | 2.03e+07 a.u. and 1.7e+07 a.u. and 1.91e+07 a.u. and 1.61e+07 a.u. and 1.94e+07 a.u. and 1.79e+07 a.u.
NCI-H358 | 234 h | 9.04e+06 a.u. and 9.4e+06 a.u. and 1.01e+07 a.u. and 8.77e+06 a.u. and 8.93e+06 a.u. and 8.1e+06 a.u.
A375 | 66.52 h | 2.42e+07 a.u. and 3.44e+07 a.u. and 3.38e+07 a.u. and 3.86e+07 a.u. and 4.68e+07 a.u. and 3.96e+07 a.u.
NCI-H1437 | 180 h | 3.96e+07 a.u. and 6.08e+07 a.u. and 4.2e+07 a.u. and 4.27e+07 a.u. and 4.39e+07 a.u. and 6.5e+07 a.u.

Set 4 — organism: Sarcocystis neurona; observed: parasite growth; tested at: 10 µM; time: 96 h; relative to: untreated
SMILES | log2 fold change
O=C1CC2(CCCC2)CC(=O)N1CCCCN1CCN(c2ncccn2)CC1 | 0.32
NS(=O)(=O)c1cc2c(cc1C(F)(F)F)NCNS2(=O)=O | 0.27
CC(C)OC(=O)CCC/C=C\C[C@@H]1[C@@H](CC[C@@H](O)CCc2ccccc2)[C@H](O)C[C@@H]1O | 0.26
S=c1[nH]cnc2nc[nH]c12 | -0.66
CCCN(CCC)S(=O)(=O)c1ccc(C(=O)O)cc1 | 0.34
CCC(=O)OCC(=O)[C@@]1(OC(=O)CC)[C@@H](C)C[C@H]2[C@@H]3CCC4=CC(=O)C=C[C@]4(C)[C@@]3(Cl)[C@@H](O)C[C@@]21C | 0.32
NC(=O)c1ncn([C@@H]2O[C@H](CO)[C@@H](O)[C@H]2O)n1 | 0.36
O=C1c2cccc3c2[C@H](CCC3)CN1[C@@H]1CN2CCC1CC2 | -0.08
CC(=O)O[C@]1(C(C)=O)CC[C@H]2[C@@H]3C=C(C)C4=CC(=O)CC[C@]4(C)[C@H]3CC[C@@]21C | -0.11

Further values, each from its own experiment
Structure (SMILES) | cell line | test | conditions | how to read | quantity | result
O=C(NCCN1CCOCC1)c1ccc2c(c1)C(=O)c1ccc(Nc3ccc(F)c(NC(=O)c4ccccc4)c3)cc1CC2 | HEK293T | high-content imaging | concentration not given, 24 h, recommended concentration | – | increased mitochondrial mass | 84%
Cn1cncc1[C@](O)(COc1ccc(C#N)cc1-c1ccc(OC(F)(F)F)cc1)c1ccc(C#N)cc1 | patient-derived normal-adjacent epithelium organoids | – | 1 µM | relative to: DMSO control | viability | 43.6%
